Published values collected from several papers.
Parts stem from different laboratories: compare values within a part only. Several values in a cell are separate wells, animals, samples, runs or records.
Chain of UniProt P00519 (whole entry, unmodified, looked up): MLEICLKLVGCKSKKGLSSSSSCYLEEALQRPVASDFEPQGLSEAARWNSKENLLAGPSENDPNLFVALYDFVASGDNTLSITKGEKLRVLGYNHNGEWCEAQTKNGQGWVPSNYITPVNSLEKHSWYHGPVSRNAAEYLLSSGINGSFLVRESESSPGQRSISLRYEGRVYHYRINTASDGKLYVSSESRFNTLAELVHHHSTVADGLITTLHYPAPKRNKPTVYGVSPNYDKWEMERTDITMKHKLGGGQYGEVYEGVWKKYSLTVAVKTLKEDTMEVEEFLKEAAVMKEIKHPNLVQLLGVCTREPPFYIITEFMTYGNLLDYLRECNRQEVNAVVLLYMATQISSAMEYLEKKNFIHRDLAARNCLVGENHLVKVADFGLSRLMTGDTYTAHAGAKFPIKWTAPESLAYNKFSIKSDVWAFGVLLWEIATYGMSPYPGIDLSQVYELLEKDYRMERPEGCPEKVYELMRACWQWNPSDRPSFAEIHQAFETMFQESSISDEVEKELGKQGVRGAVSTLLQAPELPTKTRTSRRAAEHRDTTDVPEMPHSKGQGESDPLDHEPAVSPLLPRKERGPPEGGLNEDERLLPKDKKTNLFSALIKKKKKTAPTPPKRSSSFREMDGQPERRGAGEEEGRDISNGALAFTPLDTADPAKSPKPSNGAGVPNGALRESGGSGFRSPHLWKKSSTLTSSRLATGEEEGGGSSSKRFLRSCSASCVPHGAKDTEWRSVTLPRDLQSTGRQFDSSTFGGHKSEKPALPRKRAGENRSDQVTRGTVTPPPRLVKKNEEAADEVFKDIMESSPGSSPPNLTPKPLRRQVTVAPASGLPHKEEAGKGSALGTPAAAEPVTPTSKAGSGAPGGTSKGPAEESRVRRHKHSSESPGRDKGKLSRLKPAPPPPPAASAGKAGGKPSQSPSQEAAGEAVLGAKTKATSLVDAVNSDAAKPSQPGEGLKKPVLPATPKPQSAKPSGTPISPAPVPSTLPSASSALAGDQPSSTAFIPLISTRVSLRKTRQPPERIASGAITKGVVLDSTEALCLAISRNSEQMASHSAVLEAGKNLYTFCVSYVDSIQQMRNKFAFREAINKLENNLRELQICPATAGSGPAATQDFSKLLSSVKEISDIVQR
Chain of UniProt O15111 (whole entry, looked up): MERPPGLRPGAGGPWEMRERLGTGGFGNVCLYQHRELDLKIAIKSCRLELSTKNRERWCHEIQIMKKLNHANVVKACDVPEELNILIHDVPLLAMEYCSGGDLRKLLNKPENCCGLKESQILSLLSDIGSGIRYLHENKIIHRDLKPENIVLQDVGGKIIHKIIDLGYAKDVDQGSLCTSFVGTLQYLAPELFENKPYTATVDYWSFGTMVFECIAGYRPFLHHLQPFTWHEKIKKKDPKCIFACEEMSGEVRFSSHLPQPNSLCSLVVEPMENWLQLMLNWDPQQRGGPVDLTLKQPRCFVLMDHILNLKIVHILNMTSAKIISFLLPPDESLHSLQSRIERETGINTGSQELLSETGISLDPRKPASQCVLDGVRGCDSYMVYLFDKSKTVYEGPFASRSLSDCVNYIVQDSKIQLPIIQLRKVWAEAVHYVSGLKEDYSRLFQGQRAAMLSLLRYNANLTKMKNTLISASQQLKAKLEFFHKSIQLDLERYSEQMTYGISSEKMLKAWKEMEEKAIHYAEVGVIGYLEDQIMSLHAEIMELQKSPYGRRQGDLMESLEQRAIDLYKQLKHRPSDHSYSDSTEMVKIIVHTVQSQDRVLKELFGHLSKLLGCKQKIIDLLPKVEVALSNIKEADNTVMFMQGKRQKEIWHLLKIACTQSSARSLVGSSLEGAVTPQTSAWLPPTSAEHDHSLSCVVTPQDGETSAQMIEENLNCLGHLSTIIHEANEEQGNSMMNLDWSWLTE
Chain of UniProt Q86YV6 (whole entry, looked up): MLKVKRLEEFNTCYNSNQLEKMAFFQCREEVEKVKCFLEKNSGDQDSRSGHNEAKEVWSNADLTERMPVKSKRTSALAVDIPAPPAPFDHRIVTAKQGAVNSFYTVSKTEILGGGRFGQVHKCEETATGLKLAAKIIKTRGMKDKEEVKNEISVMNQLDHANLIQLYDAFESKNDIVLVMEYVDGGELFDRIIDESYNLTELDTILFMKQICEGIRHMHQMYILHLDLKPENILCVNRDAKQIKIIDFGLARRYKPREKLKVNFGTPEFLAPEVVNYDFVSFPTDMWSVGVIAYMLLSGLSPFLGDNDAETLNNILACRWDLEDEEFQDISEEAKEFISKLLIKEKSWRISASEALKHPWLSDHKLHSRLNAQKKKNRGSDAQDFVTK
Chain of UniProt Q56UN5 (whole entry, looked up): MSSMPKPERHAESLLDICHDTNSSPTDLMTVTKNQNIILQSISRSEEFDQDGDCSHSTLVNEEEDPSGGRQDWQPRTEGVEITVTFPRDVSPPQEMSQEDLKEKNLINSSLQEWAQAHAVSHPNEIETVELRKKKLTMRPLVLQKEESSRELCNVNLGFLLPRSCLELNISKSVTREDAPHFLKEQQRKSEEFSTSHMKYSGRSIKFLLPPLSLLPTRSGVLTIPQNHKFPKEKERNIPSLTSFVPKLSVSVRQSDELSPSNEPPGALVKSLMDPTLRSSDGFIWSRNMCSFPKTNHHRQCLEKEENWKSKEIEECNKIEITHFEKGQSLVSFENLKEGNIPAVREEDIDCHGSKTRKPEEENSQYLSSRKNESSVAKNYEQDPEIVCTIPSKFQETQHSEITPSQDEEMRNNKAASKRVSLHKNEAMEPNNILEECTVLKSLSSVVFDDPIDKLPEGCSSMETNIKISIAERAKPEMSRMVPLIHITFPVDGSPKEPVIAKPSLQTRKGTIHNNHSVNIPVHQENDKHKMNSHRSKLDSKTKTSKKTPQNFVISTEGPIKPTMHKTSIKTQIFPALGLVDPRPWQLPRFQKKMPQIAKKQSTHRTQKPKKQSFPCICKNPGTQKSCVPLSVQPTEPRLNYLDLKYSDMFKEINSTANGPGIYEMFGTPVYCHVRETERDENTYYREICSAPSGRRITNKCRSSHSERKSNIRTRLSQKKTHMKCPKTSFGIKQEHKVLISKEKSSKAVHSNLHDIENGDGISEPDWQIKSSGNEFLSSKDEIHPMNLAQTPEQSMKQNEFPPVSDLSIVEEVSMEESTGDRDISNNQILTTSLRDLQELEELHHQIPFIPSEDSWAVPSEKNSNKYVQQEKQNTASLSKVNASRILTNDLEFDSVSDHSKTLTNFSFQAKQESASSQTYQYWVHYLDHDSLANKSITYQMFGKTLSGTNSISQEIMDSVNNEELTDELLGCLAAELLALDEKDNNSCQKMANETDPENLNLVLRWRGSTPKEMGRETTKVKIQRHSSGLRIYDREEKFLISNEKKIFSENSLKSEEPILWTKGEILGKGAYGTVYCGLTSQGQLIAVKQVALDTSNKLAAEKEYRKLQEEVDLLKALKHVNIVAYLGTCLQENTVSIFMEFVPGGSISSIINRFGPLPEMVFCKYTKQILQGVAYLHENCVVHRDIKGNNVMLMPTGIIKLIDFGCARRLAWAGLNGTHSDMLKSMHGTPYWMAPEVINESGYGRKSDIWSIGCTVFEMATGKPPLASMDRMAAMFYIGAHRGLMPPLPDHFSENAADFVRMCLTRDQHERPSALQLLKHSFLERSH
Chain of UniProt O75676 (whole entry, looked up): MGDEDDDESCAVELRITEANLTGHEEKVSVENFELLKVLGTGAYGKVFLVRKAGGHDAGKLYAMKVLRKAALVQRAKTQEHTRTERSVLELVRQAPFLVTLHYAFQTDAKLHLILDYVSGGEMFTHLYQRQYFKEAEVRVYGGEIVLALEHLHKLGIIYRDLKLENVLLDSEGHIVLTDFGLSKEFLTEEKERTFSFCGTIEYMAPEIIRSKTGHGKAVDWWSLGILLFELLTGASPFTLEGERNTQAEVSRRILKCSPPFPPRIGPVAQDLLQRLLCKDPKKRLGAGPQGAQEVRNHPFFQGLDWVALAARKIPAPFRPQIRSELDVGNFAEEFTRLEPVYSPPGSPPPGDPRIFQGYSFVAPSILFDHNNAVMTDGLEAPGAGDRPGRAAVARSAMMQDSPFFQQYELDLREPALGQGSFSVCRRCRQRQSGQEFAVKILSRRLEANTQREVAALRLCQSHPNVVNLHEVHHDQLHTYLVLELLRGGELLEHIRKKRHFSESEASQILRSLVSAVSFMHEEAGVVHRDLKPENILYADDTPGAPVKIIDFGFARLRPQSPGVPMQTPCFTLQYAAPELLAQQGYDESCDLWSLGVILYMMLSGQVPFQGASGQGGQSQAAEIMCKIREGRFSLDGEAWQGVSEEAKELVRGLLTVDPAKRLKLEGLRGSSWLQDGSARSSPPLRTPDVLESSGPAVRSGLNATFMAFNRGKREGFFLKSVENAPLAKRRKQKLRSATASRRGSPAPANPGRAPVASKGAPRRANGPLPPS

Study 1
SMILES: CC(C)(C(=O)O)[C@H](NC(=O)Cc1cccc(I)c1)c1ccc2oc(=O)[nH]c2c1
Method: Incucyte 3D growth
Concentration: 30 µM
Direction: higher = more growth
cell line | setting | spheroid area
A375 | 276.52 h | 1.75e+08 a.u. and 1.84e+08 a.u. and 1.79e+08 a.u. and 2.02e+08 a.u.
PC-9 | 6 h | 2.31e+08 a.u. and 2.16e+08 a.u. and 2.17e+08 a.u. and 2.29e+08 a.u. and 2.14e+08 a.u. and 2.12e+08 a.u.
A375 | 66 h | 3.97e+07 a.u. and 4.4e+07 a.u. and 3.16e+07 a.u. and 1.67e+07 a.u. and 4.03e+07 a.u. and 4.36e+07 a.u.
MEL-JUSO | 162.52 h | 1.75e+07 a.u. and 2.11e+07 a.u. and 1.93e+07 a.u. and 1.63e+07 a.u. and 1.55e+07 a.u. and 1.79e+07 a.u.

Study 2
Host: human
Medium: microsomes or S9
Concentration: 2 µM
Time: 0.5 h
Structure (SMILES) | remaining compound [%]
O=C(Cn1c2ccccc2c2ncn(Cc3nc(C4CC4)no3)c(=O)c21)NC1CCCCC1 | 42.1
CCOc1ccc(S(=O)(=O)N2CCC(Oc3nccnc3C#N)C2)cc1C (stereo not shown) | 0.276
Cc1cc(Br)cc(C(=O)c2c(C(C)C)c(=O)[nH]c(=O)n2Cc2cc(F)nc(F)c2)c1 | 60.5
COc1ccc(/C=C/c2nc(S(=O)(=O)c3ccccc3)c(N(C)C)o2)cc1 | 5.85
Cc1c(CN2CCOCC2)c(=O)n(-c2ccccc2)n1C | > 100
C=C1COC(c2cc(C)cc(C)c2)c2c(C(C)C)c(OC)nc(=O)n21 (stereo not shown) | 41.8
COc1ccc(Cl)cc1-c1ccc2c(c1)c(C#N)cn2-c1ccc(F)cc1 | 70.5
COc1cccc(CN(C)c2oc(C(C)(C)C)nc2C#N)c1 | 9.46
O=C(Nc1ccncc1)c1nn(Cc2ccccc2)c2c1CCc1ccccc1-2 | 67.1

Study 3
Structure (SMILES): FC(F)(F)c1ccc2c(c1)nc(-c1cccnc1)n2C1CC1
Effect on: cell-free assay
Method: competition with immobilised ligand
Concentration: 1 µM
target | remaining binding [%]
MAP3K19 (Homo sapiens, UniProt Q56UN5) | 99
MYLK4 (Homo sapiens, UniProt Q86YV6) | 100
Tyrosine-protein kinase ABL1, non-phosphorylated (ABL1, Homo sapiens, UniProt P00519, F317L) | 100
Ribosomal protein S6 kinase alpha-4, N-terminal kinase domain (RPS6KA4, Homo sapiens, UniProt O75676) | 99
CHUK (Homo sapiens, UniProt O15111) | 100

Study 4
Target: Lymphokine-activated killer T-cell-originated protein kinase (PBK, Homo sapiens, UniProt Q96KB5)
Effect on: enzyme activity
Mode: inhibitor
Concentration: 0.5 µM
Relative to: control
Residues (Q96KB5 1-322): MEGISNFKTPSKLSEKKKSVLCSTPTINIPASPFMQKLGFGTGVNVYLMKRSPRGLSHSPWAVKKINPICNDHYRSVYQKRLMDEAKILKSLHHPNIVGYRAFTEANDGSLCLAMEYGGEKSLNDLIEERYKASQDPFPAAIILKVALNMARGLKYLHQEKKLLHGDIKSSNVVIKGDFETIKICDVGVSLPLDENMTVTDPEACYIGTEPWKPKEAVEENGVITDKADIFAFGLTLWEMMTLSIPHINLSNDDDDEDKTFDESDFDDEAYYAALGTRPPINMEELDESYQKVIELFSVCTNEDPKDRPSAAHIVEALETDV
Structure (SMILES) | remaining activity [%]
C#Cc1cccc(Nc2ncnc3cc(OCCOC)c(OCCOC)cc23)c1 | 104
Cc1ccc(Nc2nccc(N(C)c3ccc4c(C)n(C)nc4c3)n2)cc1S(N)(=O)=O | 101
O=c1c2ccccc2[nH]c(=S)n1CCN1CCC(=C(c2ccc(F)cc2)c2ccc(F)cc2)CC1 | 107
O=C1NC(=O)C(c2cn(CCCn3ccnc3)c3ccccc23)=C1Nc1ccccc1 | 104
COc1ccc(C(=O)Nc2sc3c(c2C(N)=O)CCCC3)cc1OC | 103
COc1cc2nccc(Oc3ccc(NC(=S)NC(=O)c4ccccc4C)cc3)c2cc1OC | 81.3
OCC(O)CCON=C1C(c2c(O)[nH]c3ccccc23)=Nc2ccccc21 (stereo not shown) | 80.6
COc1cc2ncnc(Nc3ccc(Oc4ccccc4)cc3)c2cc1OC | 92.6
Nc1[nH]nc2nc3ccccc3nc12 | 106
Cc1nc(-c2ccccc2)c(-c2ccncc2)o1 | 110
Cc1ccc(NC(=O)c2ccc(CN3CCN(C)CC3)cc2)cc1Nc1nc(-c2cccnc2)cs1 | 99.6
Nc1ncnc2n[nH]c(Nc3ccc(F)cc3)c12 | 87.6
CN(C)c1ccc(C=C2C(=O)Nc3ccccc32)cc1 | 101
Cn1c2ccccc2c2c3c(c4c5ccccc5n(CCC#N)c4c21)CNC3=O | 84.2
COc1ccc(CNC(=O)Nc2ncc([N+](=O)[O-])s2)cc1 | 110
O=C(O)c1ccc2c3c1cccc3c(=O)n1c3ccccc3nc21 | 97.5
